Experimental data gathered from unrelated publications.
Lines come from different studies, so protocols differ. Numbers after ± are the reported error.

SMILES = CCN1CCN(Cc2ccc(Nc3ncc(F)c(-c4cc(F)c5nc6n(c5c4)[C@H](C)CCC6)n3)nc2)CC1; system = human, Phase Ib patients, plasma; conditions = 400 mg, multiple doses, mean, added: fulvestrant; endpoint = Cmax; result = 394 ng/mL
SMILES = Cl.[2H]C([2H])([2H])CC(=O)c1cnc(NC(=O)C2CC2)cc1Nc1cccc(-c2ncn(C([2H])([2H])[2H])n2)c1OC; assay = geometric mean; system = human; conditions = oral, 10 mg single dose, fasted, liquid; endpoint = Cmax; result = 93 ng/mL
SMILES = Oc1ncnc2[nH]ncc12; target or system = Toxoplasma gondii; assay = parasite growth, luciferase reporter; system = HFF, tachyzoite; conditions = 72 h; endpoint = EC50; result = 30 µM
SMILES = C[C@H]1CN(C(=O)CC#N)[C@]12CCN(c1ncnc3[nH]ccc13)C2; system = healthy adults, plasma; conditions = oral, 6 mg single dose; endpoint = Cmax; result = 49.7 ng/mL
SMILES = COc1ncc(-c2nc3c(n2C(C)C)[C@H](c2ccc(Cl)cc2)N(c2cc(Cl)cn(C)c2=O)C3=O)c(OC)n1; assay = LC-MS/MS; system = human, plasma; conditions = oral, 25 mg, cycle 2 day 1, high-dose arm; endpoint = Cmax; result = 126 ng/mL
SMILES = CCc1nc(C(N)=O)c(Nc2ccc(N3CCC(N4CCN(C)CC4)CC3)c(OC)c2)nc1NC1CCOCC1; system = Japanese patients, plasma; conditions = oral, 120 mg, cycle 1 day 28, multiple doses, mean; endpoint = Cmax; result = 680 ng/mL
SMILES = COc1ccc(C[C@@H](C)[C@@H](C)Cc2ccc(OC)c(OC)c2)cc1OC; system = beagle dog male, plasma; conditions = oral, 1000 mg/kg/day, day 28; endpoint = Cmax; result = 1660 ± 391 ng/mL
SMILES = O=[N+]([O-])c1ccc2c(c1)S(=O)(=O)C=C2; target or system = Toxoplasma gondii; assay = parasite growth; system = HFF, bradyzoite, alkaline-induced; endpoint = EC90; result = 9.66 µM
SMILES = Cc1nc(-c2cnc(NC(C)C)n(C)c2=O)ccc1Oc1ccnc(-c2cnn(C)c2)c1; system = Beagle dog, male, plasma; conditions = intravenous, 1 mg/kg; endpoint = Cmax; result = 2510 ng/mL
SMILES = COCCOc1cnc2ccn([C@H](C)c3nnc4c(F)cc(-c5cnn(C)c5)cn34)c(=O)c2c1; system = patients, plasma; conditions = oral, 100 mg twice daily, day 1, 200 per day; endpoint = Cmax; result = 2290 ng/mL
SMILES = Cn1c(C(F)(F)F)cc(=O)n(-c2cc(Oc3cccnc3OCC(=O)O)c(Cl)cc2F)c1=O; system = beagle dog, female, plasma; conditions = oral capsule, 100 mg/kg/day epyrifenacil, day 1, 90-day study; endpoint = Cmax; result = 2160 ng/mL
SMILES = COc1cc2c3c(n(CCCN4CCOCC4)c(=O)c2cc1OC)-c1cc2c(cc1C3=O)OCO2; system = beagle dog, female, plasma; conditions = oral, 1720 mg/m^2, single dose, gelatin capsules; endpoint = Cmax; result = 244 ng/mL
SMILES = C[C@@H]1CCO[C@H]2Cn3cc(C(=O)NCc4ccc(F)cc4F)c(=O)c(O)c3C(=O)N12; system = human paediatric patients, weight 6 to under sample A kg, plasma; conditions = oral, 8 mg granules, steady state, geometric mean, population PK post-hoc, N 2; endpoint = Cmax; result = 2570 ng/mL

For quick reference, copied from above:
SMILES = Cl.[2H]C([2H])([2H])CC(=O)c1cnc(NC(=O)C2CC2)cc1Nc1cccc(-c2ncn(C([2H])([2H])[2H])n2)c1OC; assay = geometric mean; system = human; conditions = oral, 10 mg single dose, fasted, liquid; endpoint = Cmax; result = 93 ng/mL
